Measured values pooled from the literature.
Every numbered part comes from another study and shows a few of its results, in no order.

Set 1 — method: EMSA with sequencing; form: double-stranded DNA, one strand shown; sample: in vitro; concentration: 10 and 20 nM; baseline: negative control set to 0; direction: higher = stronger binding; endpoint: normalised bound fraction
Target: Hepatocyte nuclear factor 3-alpha (Foxa1, Mus musculus, UniProt P35582, residues 1-468, full length assumed)
Chain of UniProt P35582 (whole entry, looked up): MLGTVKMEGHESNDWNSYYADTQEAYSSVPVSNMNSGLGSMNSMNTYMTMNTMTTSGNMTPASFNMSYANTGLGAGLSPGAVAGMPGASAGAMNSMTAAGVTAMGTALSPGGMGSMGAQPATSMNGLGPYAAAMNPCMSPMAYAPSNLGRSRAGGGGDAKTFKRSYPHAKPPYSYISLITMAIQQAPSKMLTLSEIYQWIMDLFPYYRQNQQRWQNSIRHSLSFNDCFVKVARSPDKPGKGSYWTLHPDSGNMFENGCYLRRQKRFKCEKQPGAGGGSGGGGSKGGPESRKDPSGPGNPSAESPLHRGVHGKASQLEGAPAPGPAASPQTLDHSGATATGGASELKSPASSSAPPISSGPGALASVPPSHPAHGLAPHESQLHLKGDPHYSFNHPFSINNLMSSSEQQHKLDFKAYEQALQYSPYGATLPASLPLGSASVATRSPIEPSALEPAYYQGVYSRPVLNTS
Setting: whole designed probe, mean of two concentrations, ends assumed
Shared flanks, not repeated: GTGAGCGGTGCCCATTGATGGGGAAC … TTTCACTGGGATCGTGGGGAC
Oligonucleotide = TTGCAGGCTGCAGTGATGTCCTTCATATCACGTCATCTTAGTGCCACTTCATCTTTATTGGCATGTGTGGGAGGAACAAAACCCCAGTGGTATGCAAACACCGTCATGGGGACTTGCTTCAAGCCATGGGAAGTTTCACGCAAAGCCAGTTTCTCAGTAGGGCAAATGTTGTGTAAAAGTACAAGAAGTTTGA; result = 0.149 ratio
Oligonucleotide = TTAAGTTGGCAAAATTTAGGAAGCCAGATGATGCCAGATTTTGGCAGGACTTTGAGGATATTGGAACCATTACAGGTTCCTAACACTCAGCAATGTTTGCATAGGTTATGAGAGAACATGTAAGGAATTGTTTATTAAGGCATTATTTGAAGTGGCAATGAGTTGGAGGACATTCGCAAATCCATCACTGAGA; result = 0.441 ratio
Oligonucleotide = TTACCACATTTCTTACATGCATAGGGTTTCTCTCCAGTATGAGTTCTTTCATGTTCACGAAGATAACTTGAATAATTGAAGGCTTTATCACAAAGATTACATTTATATGTTTTCTCTCCAGTGTAAGTGCTCTGAGGCATTTGAAATACACTAGGAAAATCAAAAGGCTTCTCATACACTGGACCCTTATAAG; result = -0.0289 ratio
Oligonucleotide = AAAGTAATATAGCAGAATGACTTTTATTATAGATGATAATTTATGAAAAATGTAGCCAACGGAATTGATGTCAAACTTTTATCCACAAGTGCAAATTACTTTAGTATTGCTCACTATTTACCAAGGTTTGTTACAGCAGTAGTCACTATCTCAGTTGGCATTCGGCCAGATTATATTTTTTAAAGTGGCATTG; result = 0.0684 ratio
Oligonucleotide = GGGTCAAGTGGCCACCCAGAGAGCTGATGCATGCTGATGTGAGACTCCTACAAGCCATGAGACAAAACAGACTTATAAACATGTAACGTGTTGTGTTGACACAAGGAACCAAGCAGTGATGAGGAATGTGCCAATGGCTGAGATGGAGCAACCCACTTGCTGAGTCTTGCAAAAGCAACCTCCCTAGATGAAC; result = 0.373 ratio
Oligonucleotide = CTGGCCCTCACCTCAGTTGCTCCTATATTCACCACAGCCTTAGGGACACCCTTGATTCTTTCCGTTCATTAAGAAAAAGGTATAATTGTTCTTGTTTACTTATCTTCTGAAAAACATTAAAGAGTTTTTTTTTTAAAATAAACAAACCCAAAAACTAGCCTACAAAACACCTCAAAAACATTATGAAGCCTTT; result = 0.466 ratio
Oligonucleotide = TGTTCCAGCAGGTTGATGGAGCATAGGGGCTTCAAAGGAACCGGTGATGCAGTCATGCTGTGGCTGGAGTTTACGAAAGGCTGACTCACCAAAGGTCATCTGAGACATTTACACAAACATCCTGACCCCAAGTCCAGTGCTCTTTCTAATCTATAACAGGGTTCTTCCTTTTTTTCTTTTTCTTTCACTTTTT; result = 0.00443 ratio
Oligonucleotide = AAAGATTTTTTTGACACCCTCAAGAAAGGAGATTAAAAATTATGACTGTTTGACATTTAAAAAAAAGCACTAGGAGGTATGTGCTGCTCAGCCGTGTTTACATAGTCATGTATTGTTTTGTTTAACCAAATTATGTAAATACAGTATTCTACATCTTTTATTTTGAGGTATATATTCATTGTCCTGTGATAAA; result = 0.483 ratio

Set 2 — method: RNA Bind-n-Seq; form: RNA; sample: in vitro; concentration: 365 nM; baseline: no-protein control; direction: higher = stronger binding; endpoint: RBNS enrichment (R)
Target: RNA binding protein fox-1 homolog 2, RRM domain, GST-SBP tag (RBFOX2, Homo sapiens, UniProt O43251-10, residues 100-194)
Setting: natural RNA segment, single round, ends assumed
Shared flanks, not repeated: GGGAGUUCUACAGUCCGACGAUC … UGGAAUUCUCGGGUGCCAA
Target sequence (chain): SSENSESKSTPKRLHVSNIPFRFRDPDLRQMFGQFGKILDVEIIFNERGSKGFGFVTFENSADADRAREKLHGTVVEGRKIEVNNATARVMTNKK
Oligonucleotide = UAUUGAAGAUUUAAAGACAGUGGCACACACACUUGAACAAAAGCAAGCCCUCAGUGUUUCCAGCCAUUUGAACCUGGACAGAUGCAGCUGGGGAGGGCCAGAGGAAGUGG; result = 0.396
Oligonucleotide = UGGAGACUGGCUGGCAUUCCUCCAGCACUCUGCAGACUUCUUCCUGGGCCCGAGGCUAUGGAGCCUUGGCUUUCACUUCUGUGACAAACACAUGCCAUUUCCCCAGCCUC; result = 0.346
Oligonucleotide = AGUGUAGGUGAUUACAUUAGCCUUUGAAGUCAACACAAAGUUUAAAACUUCCAGGAUUUUGCAAAGUUGUAUAUAUUUAAUGCUGUGCAACUGCUAAACUAUGCAGUUUU; result = 0.882
Oligonucleotide = GGUUUAGUUCUGUCUUUUUUCUCCUUUUUUCUAAAUGCUGGUAAAUAUUUACAUUCAGCCAGGGAAGAGGAGGCCAGAGGUCGGGCCAGCUGCCCCAUUCUUUUAACGUU; result = 0.348
Oligonucleotide = UUUUAUCAGGCUUUCUCUGGGGGACAGCAGUCUCUGAGCACCAGGGAGCAGUUGCCCUCAGGCCUGUGCCCAGCAUGCCCUCCCCUUUUUAUACGAAUGUUUUCUACCAG; result = 1.34
Oligonucleotide = AUCAAAAAUCAAAGUGAAAUAAUACCAUCCAGCACUUAACUCUCAGGUCCCAACUAAGUCUGGCCUGAGCUAAUUUAUUUGAGCGCAGAGUGUAAAAUUUAAUUCAAAAU; result = 0.409
Oligonucleotide = AGUUUUUGAGACUAGUUUACCUCUUCACAUUUAUGCUCACAACCCUCUUGUUAGAAAAGUCUGUGUUUAUAUACAGGCUGUAAGUUUGUGAUUGAUAAAAAGAAGAUGAG; result = 0.38
Oligonucleotide = GGAGAAGUUUACAUGGUGACUGUUCACCUGCAGUACUGUGGACUUUGAACAUUUUGUCCCCUUUCCAGUGAAAAACUAAAAAGUAGUCAUCUGCCAUUACUGUUAUUUGC; result = 0.232
Oligonucleotide = AUUUUUGGUAAGGAAUUCAUUUCACAGGUAGUGUUUCAGACUCUGAAAGCCCUGACUUGGUUCUUGGCUUCUACUGUACUAGUUACUAGUUACUGGUACUGUUGCCAAGC; result = 0.258
Oligonucleotide = CCUACUGCAUUCGUCAGCACCUGGAAACACCUGCCUUCUAAUGUAGAGCAUCCUAAAGAAAGCACGCAUGAGGUCAUUCUGAUGCACGGCGAGAUGAGAUGUCAUUUCUG; result = 12.9
Oligonucleotide = AUGUGUCCCCCAACUCCACCCCUCACAGUUUGGGCCUGUUUCUGGCAAAGAGUCAGGAAGGUUACUGAAUUAGGGAACAUUUUCUGCACCUUCUGAUUUUACUUAAGCAG; result = 0.286
Oligonucleotide = AAACCUCCAGCUGCAAAACCUUAUGAACUCUUCAGUCGUACACACUGAAAACCUAUUUCUUCUAAAUUACAUGAUUUGGAUUGGUUUUAGGGUUUUAGGGUUGUAGGGUU; result = 0.3

Set 3 — method: universal PBM; form: double-stranded DNA, one strand shown; sample: in vitro; concentration: not given; direction: higher = stronger binding; endpoint: E-score
Target: Sal-like protein 4, full length isoform B (SALL4, Homo sapiens, UniProt Q9UJQ4-2, residues 1-616)
Setting: 8-mer, flanks averaged, mean of replicates
Target sequence (chain): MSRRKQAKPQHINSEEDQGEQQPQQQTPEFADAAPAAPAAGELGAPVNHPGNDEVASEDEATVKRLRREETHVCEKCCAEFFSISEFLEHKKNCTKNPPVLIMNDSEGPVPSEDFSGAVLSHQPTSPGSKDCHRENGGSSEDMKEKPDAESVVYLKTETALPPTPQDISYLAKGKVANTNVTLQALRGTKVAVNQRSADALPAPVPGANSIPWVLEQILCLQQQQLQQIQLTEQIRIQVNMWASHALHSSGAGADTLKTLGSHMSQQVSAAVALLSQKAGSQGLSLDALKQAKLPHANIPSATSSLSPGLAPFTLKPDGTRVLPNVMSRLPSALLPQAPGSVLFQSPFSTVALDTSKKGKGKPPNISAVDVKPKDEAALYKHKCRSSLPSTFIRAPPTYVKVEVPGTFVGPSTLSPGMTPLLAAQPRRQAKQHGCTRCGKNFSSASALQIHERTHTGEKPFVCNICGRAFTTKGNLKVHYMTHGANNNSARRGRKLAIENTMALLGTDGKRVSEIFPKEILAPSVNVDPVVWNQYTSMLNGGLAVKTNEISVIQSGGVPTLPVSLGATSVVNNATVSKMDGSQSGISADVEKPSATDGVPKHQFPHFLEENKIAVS
Oligonucleotide = CCCACAGG; result = -0.271
Oligonucleotide = ATGCTGAG; result = -0.224
Oligonucleotide = AAAGATCG; result = 0.0428
Oligonucleotide = AATAATTC; result = 0.403
Oligonucleotide = AATTCTCG; result = 0.0517
Oligonucleotide = ACTCGGGC; result = -0.215
Oligonucleotide = AACAAGAT; result = 0.169
Oligonucleotide = CGTAAGAA; result = 0.0845
Oligonucleotide = AAAGTAGG; result = 0.153
Oligonucleotide = GCCAGTAC; result = -0.0541
Oligonucleotide = AGATATGG; result = 0.302
Oligonucleotide = CCTCGCAC; result = -0.177
Oligonucleotide = CACTTACG; result = 0.0229
Oligonucleotide = ATCCAAAA; result = 0.242
Oligonucleotide = GAGCCCCC; result = -0.37
Oligonucleotide = CCATAGGG; result = -0.0305
Oligonucleotide = GACATTAA; result = 0.25
Oligonucleotide = ATAGTGGA; result = 0.171

Set 4 — method: protein binding microarray; form: double-stranded DNA, one strand shown; sample: in vitro; concentration: not given; baseline: not given; direction: higher = stronger binding; endpoint: E-score
Target: Histone acetyltransferase KAT6A, winged helix 2, GST fusion (KAT6A, Homo sapiens, UniProt Q92794, residues 85-181)
Setting: 8-mer, flanks averaged, mean of 2 arrays, mostly near background
Target sequence (chain): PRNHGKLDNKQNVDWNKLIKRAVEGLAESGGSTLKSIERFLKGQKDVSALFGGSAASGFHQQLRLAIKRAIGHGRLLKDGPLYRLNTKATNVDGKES
Oligonucleotide = ATTGCTAG; result = 0.0286
Oligonucleotide = GTACATAC; result = -0.171
Oligonucleotide = CTAGTTAC; result = -0.103
Oligonucleotide = AGTAGTCA; result = -0.191
Oligonucleotide = CAGTCTAC; result = -0.293
Oligonucleotide = AAGATCTA; result = -0.0599
Oligonucleotide = CAACACCG; result = 0.0717
Oligonucleotide = AAAGGGGG; result = 0.0941
Oligonucleotide = CTAGGATC; result = -0.135
Oligonucleotide = CGCCGTGA; result = 0.0567
Oligonucleotide = CCGTATTA; result = -0.0164
Oligonucleotide = AAGTAAGC; result = -0.0358
Oligonucleotide = GCAGGGAA; result = -0.0535
Oligonucleotide = TCGTTTAA; result = -0.0592
Oligonucleotide = ACTTTAAA; result = 0.0192
Oligonucleotide = TAACAGGA; result = -0.0436
Oligonucleotide = ACTACCCT; result = -0.232
Oligonucleotide = AGGCTCTC; result = 0.0294
Oligonucleotide = GTGGCCAC; result = 0.151
Oligonucleotide = AGTCGACT; result = -0.112
Oligonucleotide = GCGTATTA; result = 0.0414
Oligonucleotide = AGAGTTTG; result = 0.024
Oligonucleotide = CGTTATGC; result = -0.122

Some of these lines once more (set 4):
Oligonucleotide = AAGATCTA; result = -0.0599
Oligonucleotide = CAACACCG; result = 0.0717
Oligonucleotide = AAAGGGGG; result = 0.0941
Oligonucleotide = CTAGGATC; result = -0.135
Oligonucleotide = CGCCGTGA; result = 0.0567
Oligonucleotide = CCGTATTA; result = -0.0164
Oligonucleotide = AAGTAAGC; result = -0.0358
